Experimental data of several laboratories.
Protocols differ between the studies behind these lines. Numbers after ± are the reported error.

With Clc1cccnc1 the half-life was 27.4 h (pH 7.4).
CC[C@H](C)[C@H](NC(=O)[C@H](C)NC(=O)[C@H](CCC(=O)O)NC(=O)c1ccc2c(c1)C(=O)OC21c2ccc(O)cc2Oc2cc(O)ccc21)C(=O)N[C@@H](Cc1ccc(O)cc1)C(=O)N[C@@H](C)C(=O)N[C@@H](C)C(=O)N1CCC[C@H]1C(=O)N[C@@H](Cc1ccccc1)C(=O)N[C@@H](C)C(=O)N[C@@H](CCCCN)C(=O)N[C@@H](CCCCN)C(=O)N[C@@H](CCCCN)C(N)=O gave a half-life of 0.0833 ± 0.0167 h (CE-LIF; HeLa cytosolic lysate; 37 °C).
O=c1c(-c2cnn(-c3ccccc3)c2)c(C(F)(F)F)oc2c(O)c(O)ccc12 has a half-life of 3.85 h (mouse plasma).
With N=C(N)NCCC[C@@H]1NC(=O)[C@H](CO)NC(=O)[C@@H](NC(=O)[C@H](CO)NC(=O)[C@H](CO)NC(=O)[C@H](Cc2c[nH]c3ccccc23)NC(=O)CNC(=O)[C@H](CO)NC(=O)[C@@H](N)Cc2c[nH]c3ccccc23)CSSC[C@@H](C(=O)NCC(=O)O)NC(=O)[C@H](CO)NC1=O the half-life was 0.299 h (patients, plasma; intravenous, 5 mg/kg, thrice weekly, mean).
Cc1c(Cc2ccc(Cl)c(OC(C)C(=O)O)c2)c2ccc(C(=O)NC(C)c3ccc(C(C)(C)C)cc3)cc2n1CC1CCC1 (centres unmarked) has a half-life of > 1 h (mouse liver microsomes; 1 µM, with: microsomes 1 mg/mL).
For N=C(N)NCCC[C@@H]1NC(=O)[C@H](CCCNC(=N)N)NC(=O)[C@@H](CCCNC(=N)N)NC(=O)[C@@H](CCCNC(=N)N)NC(=O)[C@@H](C(c2ccccc2)c2ccccc2)NC(=O)[C@H](Cc2c[nH]c3ccccc23)NC(=O)[C@@H](C(c2ccccc2)c2ccccc2)NC1=O, the half-life was ≥ 6 h (LC-MS; human plasma).
The half-life of O=Cc1cc(C(F)(F)F)cc(C(F)(F)F)c1 is reported as > 24 h (reactivity with N-α-acetyl-lysine, HPLC-MS; pH 10.2).
Cc1c(Cc2ccc(Cl)c(O[C@@H](C)C(=O)O)c2)c2ccc(C(=O)N[C@@H](C)c3ccc(C(C)(C)C)cc3)cc2n1C gave a half-life of 0.7 h (mouse liver microsomes; 1 µM, with: microsomes 1 mg/mL).
O=C(O)c1ccc(OP(=O)(O)O)c(CN2CCC(=C3c4ccc(Cl)cc4CCc4cccnc43)CC2)c1 has a half-life of > 2 h (simulated gastric fluid; 10 µM, 2 h incubation, pH 1.2).
The half-life of Cc1c(Cc2ccc(Cl)c(OC(C)C(=O)O)c2)c2ccc(C(=O)NC(C)c3ccc(C(C)(C)C)cc3)cc2n1CC1CC1 (centres unmarked) is reported as > 1 h (human liver microsomes; 1 µM, with: microsomes 1 mg/mL).
For Brc1ncc[nH]1, the half-life was 150 h (pH 7.4).
With Cc1c(Cc2cccc(OC(C)(C)C(=O)O)c2)c2ccc(C(=O)N[C@@H](C)c3cccc(Br)c3)cc2n1C the half-life was 0.994 h (human liver microsomes).
The half-life of CCC(=O)N[C@@H](C)C(=O)OCC(=O)N[C@@H](C)C(=O)O is reported as 25 to 30 h (depolymerisation; pH 6, 65 °C).
With Cc1onc(-c2ccccc2)c1-c1ccc(S(=O)(=O)Cl)cc1 the half-life was 0.4 h (chemical stability, HPLC-MS; borate buffered saline; pH 10.2, no N-acetyl-lysine).
The half-life of Cc1c(Cc2cc(F)cc(OC(C)(C)C(=O)O)c2)c2ccc(C(=O)N[C@@H](C)c3ccc(C(C)(C)C)cc3)cc2n1CC1CCC1 is reported as > 1 h (mouse liver microsomes; 1 µM, with: microsomes 1 mg/mL).
With CN(Cc1cc(C2CC2)on1)C(=O)c1cccc(-c2ccc(F)cc2)c1 the half-life was 1.39 h (human liver microsomes; 2 µM, pH 7.5, without 1-aminobenzotriazole).
O=C(N1CCCCC1)C12CC(c3ccccc3)(C1)C2 gave a half-life of 1.17 h (metabolic stability; pooled human liver microsomes; 2 µM, pH 7.4).

A few entries again:
With CN(Cc1cc(C2CC2)on1)C(=O)c1cccc(-c2ccc(F)cc2)c1 the half-life was 1.39 h (human liver microsomes; 2 µM, pH 7.5, without 1-aminobenzotriazole).
